# Results of several laboratories.
# Lines come from different studies, so protocols differ.
# Cell line: OVCAR-3
SMILES,read-out,method,tested at,time,baseline,quantity,value
Cc1cc(C)c([N+]#[C][Pd-]([Cl])([Cl])=[C](Nc2cccc(CN[C](Nc3c(C(C)C)cccc3C(C)C)=[Au][Cl])c2)Nc2c(C)cc(C)cc2C)c(C)c1,cell growth or viability,,,,,IC50,26 µM
CC(=O)OCC1(O)C(Nc2cccc(C(C)=O)c2)C(N)C(NC(=O)N(C)C)(C(C)OC(C)=O)C1(C)O (stereo not drawn),cell growth or viability,SRB,,,,GI50,0.53 µM
CC(=O)OC[C@H]1O[C@@H](Sc2sc(C(=O)c3ccc(Br)cc3)c(N)c2-c2nc3ccccc3s2)[C@H](OC(C)=O)[C@@H](OC(C)=O)[C@H]1OC(C)=O,,SRB,10 µM,48 h,untreated,growth,67.1%
CC(=C(c1ccc(O)cc1)c1ccc(Cl)cc1)c1ccc(Cl)cc1,cell growth or viability,,,,,GI50,0.67 µM
Cc1cc(C)c(N=[C](NCc2ccc(N)cc2)[AuH][Cl])c(C)c1,cell growth or viability,,,,,IC50,> 100 µM
CC(=O)OC[C@H]1O[C@@H](Sc2sc(C(=O)c3ccc(C)cc3)c(N)c2-c2nc3ccccc3s2)[C@H](OC(C)=O)[C@@H](OC(C)=O)[C@H]1OC(C)=O,,SRB,10 µM,48 h,untreated,growth,65.9%
COc1ccc(CC2COC(=O)C2Cc2ccc3c(c2)OCO3)cc1OC (mixture of isomers),,MTT,concentration not given,72 h,,viability,decreased
Cc1cc(C)c([N+]#[C][Pt-]([Cl])([Cl])=[C](Nc2cccc(CN[C](Nc3c(C(C)C)cccc3C(C)C)=[Au][Cl])c2)Nc2c(C)cc(C)cc2C)c(C)c1,cell growth or viability,,,,,IC50,> 100 µM
CC(=O)O[C@H]1C(=O)[C@]2(C)[C@@H](OC(=O)[C@H](N)CSC3CC(=O)N(CCC(=O)Nc4ccc(-c5ccc(/N=N/c6ccc7c(S(=O)(=O)O)cc(S(=O)(=O)O)c(N)c7c6O)c(C)c5)cc4C)C3=O)C[C@H]3OC[C@@]3(OC(C)=O)[C@H]2[C@H](OC(=O)c2ccccc2)[C@]2(O)C[C@H](OC(=O)[C@H](O)[C@@H](NC(=O)c3ccccc3)c3ccccc3)C(C)=C1C2(C)C (stereo partly drawn),,annexin V/PI flow cytometry,concentration not given,24 h,,late apoptotic cells,36.5%
CC(Cc1ccc(Cl)cc1)=C(c1ccc(Cl)cc1)c1ccc(OCCN(C)C)cc1,cell growth or viability,,,,,GI50,4.53 µM
CC(C)c1cccc(C(C)C)c1[N+]#[C][Pd-]([Cl])([Cl])=[C](Nc1cccc(CN[C](Nc2c(C(C)C)cccc2C(C)C)=[Au][Cl])c1)Nc1c(C(C)C)cccc1C(C)C,cell growth or viability,,,,,IC50,20 µM
CC/C=C\C/C=C\C/C=C\C/C=C\C/C=C\C/C=C\CCC(=O)Nc1ccn(C2OC(CO)C(O)C2(F)F)c(=O)n1 (stereo not drawn),cell growth or viability,SRB,,,,GI50,11.1 µM

# Excerpt of the above:
SMILES,read-out,method,tested at,time,baseline,quantity,value
CC(C)c1cccc(C(C)C)c1[N+]#[C][Pd-]([Cl])([Cl])=[C](Nc1cccc(CN[C](Nc2c(C(C)C)cccc2C(C)C)=[Au][Cl])c1)Nc1c(C(C)C)cccc1C(C)C,cell growth or viability,,,,,IC50,20 µM
